Assay results collected from several papers.
Every numbered part comes from another study and shows a few of its results, in no order.

Study 1
Target: Prothrombin, mature alpha-thrombin (F2, Homo sapiens, UniProt P00734)
Method: aptamer microarray, sandwich
Form: DNA with 2'F-ANA
Sample: in vitro
Tested at: 200 nM
Setting: whole 15-mer aptamer, many near background
Added: Cy3 exosite-II aptamer, 400 nM
Reading: higher = stronger binding
Sequence: GGTTGGTGTGGTTGG
Modification | mean fluorescence intensity
2'F-ANA at 3 7 12 15 | 1540 a.u.
2'F-ANA at 1 4 8 12 | 343 a.u.
2'F-ANA at 1 5 6 10 11 12 13 15 | 51.5 a.u.
2'F-ANA at 2 3 8 11 13 15 | 740 a.u.
2'F-ANA at 1 4 5 7 12 15 | 97.2 a.u.
2'F-ANA at 2 4 9 10 11 12 15 | 119 a.u.
2'F-ANA at 3 5 8 10 12 13 | 63.2 a.u.

Study 2
Target: Histone acetyltransferase KAT6A, winged helix 2, GST fusion (KAT6A, Homo sapiens, UniProt Q92794, residues 85-181)
Method: protein binding microarray
Form: double-stranded DNA, one strand shown
Sample: in vitro
Tested at: not given
Setting: 8-mer, flanks averaged, mean of 2 arrays, mostly near background
Baseline: not given
Reading: higher = stronger binding
Construct (chain): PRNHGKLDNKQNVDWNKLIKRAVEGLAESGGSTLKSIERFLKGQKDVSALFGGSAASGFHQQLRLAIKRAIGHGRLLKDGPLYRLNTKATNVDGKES
Sequence | E-score
CAGAGAGC | 0.0328
AGGACATC | 0.163
AACTTTTA | 0.0767
CACAAGCC | 0.0185
CCTAGTGC | 0.0698
CGCGTCCG | 0.0377
ACGTAGGA | -0.0955

Study 3
Target: Interferon regulatory factor 3, full length, phosphomimetic (IRF3, Homo sapiens, UniProt Q14653, residues 1-427, S386D/S396D/S398D/S402D/T404D/S405D)
Method: protein-binding microarray
Form: double-stranded DNA, one strand shown
Sample: in vitro
Tested at: 2540 nM top
Setting: 60-bp whole probe
Added: salmon DNA 0.4 mg/ml
Baseline: random background probes
Reading: higher = stronger binding
Shared flanks, not repeated: GCCTAGCAC … GTCTTGATTCGCTTGACGCTGCTG
Residues (chain): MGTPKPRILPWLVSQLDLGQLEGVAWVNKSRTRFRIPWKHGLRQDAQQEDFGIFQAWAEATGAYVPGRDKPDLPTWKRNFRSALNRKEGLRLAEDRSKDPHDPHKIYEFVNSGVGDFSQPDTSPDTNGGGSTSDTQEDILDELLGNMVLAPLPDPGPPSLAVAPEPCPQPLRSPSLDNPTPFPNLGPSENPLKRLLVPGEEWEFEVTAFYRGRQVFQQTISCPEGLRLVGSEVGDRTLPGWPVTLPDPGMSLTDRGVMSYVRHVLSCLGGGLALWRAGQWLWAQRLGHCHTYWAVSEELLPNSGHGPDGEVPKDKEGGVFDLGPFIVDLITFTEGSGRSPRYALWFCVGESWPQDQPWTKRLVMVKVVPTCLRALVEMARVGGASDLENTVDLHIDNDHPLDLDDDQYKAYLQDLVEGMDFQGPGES
Sequence | fitted relative affinity [z-score]
GTGTGTTTGTGTGTGTATGTGTGCTAG | -0.45
GGGTCTTGCAGTATGGAAAGGTGCTAG | -0.299
GACGGTATCGGTCTCGGCACGTGCTAG | 4.42
TCAAGTTTGTATATATTACTGTGCTAG | 0.0776
GACGGTATCGACTTTCTGGACGTGCTA | 1.22
CTTTACTTCACTCTCTGCTTGTGCTAG | 1.09

Single results of other studies
Substance | target | assay | test system | setting | how to read | measurement | value
PhoQ, residues 284 288 289 292 302 303 NLGVHL | PhoP, residues 12 14 15 18 19 LWHVM (Escherichia coli, UniProt P23836) | Sort-seq, measured: YFP reporter | E. coli | PhoQ-PhoP variant library, added: 10 µM Mg2+ | baseline: high Mg2+ state, higher = stronger signaling | fold induction | 2.74
